Experimental data collected from several papers.
Every numbered part comes from another study and shows a few of its results, in no order. Substitutions count along the parent as printed.
Chain of UniProt O15294 (whole entry, looked up): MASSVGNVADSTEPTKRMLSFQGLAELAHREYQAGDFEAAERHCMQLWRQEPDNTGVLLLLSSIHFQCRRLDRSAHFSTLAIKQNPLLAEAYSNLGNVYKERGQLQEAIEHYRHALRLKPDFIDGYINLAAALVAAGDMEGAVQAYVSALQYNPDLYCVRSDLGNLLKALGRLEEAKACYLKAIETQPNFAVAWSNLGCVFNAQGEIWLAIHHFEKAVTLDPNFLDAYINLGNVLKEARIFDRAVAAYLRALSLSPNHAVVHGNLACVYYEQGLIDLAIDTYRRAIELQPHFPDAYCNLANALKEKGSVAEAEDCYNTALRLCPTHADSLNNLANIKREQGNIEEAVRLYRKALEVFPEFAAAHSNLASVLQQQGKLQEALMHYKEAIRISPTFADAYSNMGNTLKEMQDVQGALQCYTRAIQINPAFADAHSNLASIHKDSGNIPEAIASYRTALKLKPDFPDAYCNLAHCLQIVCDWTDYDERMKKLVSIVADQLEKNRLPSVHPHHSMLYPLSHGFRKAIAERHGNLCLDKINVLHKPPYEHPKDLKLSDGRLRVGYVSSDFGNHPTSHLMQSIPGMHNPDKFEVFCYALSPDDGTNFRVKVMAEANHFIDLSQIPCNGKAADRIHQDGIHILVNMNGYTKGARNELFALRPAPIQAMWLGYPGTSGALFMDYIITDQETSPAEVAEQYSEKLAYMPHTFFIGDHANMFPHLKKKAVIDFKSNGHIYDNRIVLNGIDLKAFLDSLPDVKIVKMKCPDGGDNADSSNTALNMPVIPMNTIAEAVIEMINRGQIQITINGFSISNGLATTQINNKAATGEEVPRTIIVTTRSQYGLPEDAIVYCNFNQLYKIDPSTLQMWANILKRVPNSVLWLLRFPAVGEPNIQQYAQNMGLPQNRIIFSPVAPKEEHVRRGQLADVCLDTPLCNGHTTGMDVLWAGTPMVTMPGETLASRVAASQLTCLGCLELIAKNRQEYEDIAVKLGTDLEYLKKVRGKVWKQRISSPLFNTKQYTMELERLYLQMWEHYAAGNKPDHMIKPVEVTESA

Sample 1
Target: CCNA1, cyclin fold, Cln2 fusion (human)
Technique: yeast growth competition, sequencing
Matrix: yeast
Notes: weak parent motif
Reference: not given
Direction: higher = stronger binding
Starting sequence: INSM1 docking peptide (human); PKAIRKLHFEDEV; partner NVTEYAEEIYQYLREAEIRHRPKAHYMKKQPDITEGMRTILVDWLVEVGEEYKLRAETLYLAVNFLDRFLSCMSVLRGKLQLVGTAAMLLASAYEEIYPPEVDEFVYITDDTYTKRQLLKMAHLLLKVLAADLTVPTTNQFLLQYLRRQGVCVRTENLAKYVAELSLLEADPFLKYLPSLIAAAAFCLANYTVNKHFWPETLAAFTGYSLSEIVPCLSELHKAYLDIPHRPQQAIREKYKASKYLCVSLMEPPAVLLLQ
Variant | normalised enrichment score
PKAIRMLHFEDEV [K6M] | 0.364
PKAGRKLHFEDEV [I4G] | 0.16
PKAIRKLHCEDEV [F9C] | -0.0648
PKAINKLHFEDEV [R5N] | -0.363
PKAIRKLHFEEEV [D11E] | 0.759
PKAIPKLHFEDEV [R5P] | -0.143
PKAIRKLKFEDEV [H8K] | 0.631
PKAIRKLHFDDEV [E10D] | 0.348

Sample 2
Target: CREB3, bZIP domain (human)
Technique: DHFR protein complementation
Matrix: yeast
Notes: single substitutions, most at no-binding floor
Reference: wild-type JUN-FOS pair
Direction: higher = stronger binding
Starting sequence: JUN, bZIP domain (human); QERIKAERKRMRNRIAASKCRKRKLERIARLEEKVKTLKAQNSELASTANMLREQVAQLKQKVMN; partner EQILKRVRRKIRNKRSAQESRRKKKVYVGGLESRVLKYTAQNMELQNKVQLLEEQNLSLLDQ
Variant | binding fitness
L38K | -1.53 natural log
K36V | -1.48 natural log
K36W | -1.47 natural log
A57G | -1.46 natural log
R30M | -1.5 natural log
V56A | -1.53 natural log
L38S | -1.55 natural log
V56E | -1.52 natural log

Sample 3
Target: PABPC1L2, full length, GST fusion (mouse, UniProt A0ABA7IW68)
Technique: RNAcompete
Molecule type: RNA
Matrix: in vitro
Tested at: 20 nM
Notes: 7-mer, probes averaged, single round
Reference: mean of 7-mers
Direction: higher = stronger binding
Residues (chain): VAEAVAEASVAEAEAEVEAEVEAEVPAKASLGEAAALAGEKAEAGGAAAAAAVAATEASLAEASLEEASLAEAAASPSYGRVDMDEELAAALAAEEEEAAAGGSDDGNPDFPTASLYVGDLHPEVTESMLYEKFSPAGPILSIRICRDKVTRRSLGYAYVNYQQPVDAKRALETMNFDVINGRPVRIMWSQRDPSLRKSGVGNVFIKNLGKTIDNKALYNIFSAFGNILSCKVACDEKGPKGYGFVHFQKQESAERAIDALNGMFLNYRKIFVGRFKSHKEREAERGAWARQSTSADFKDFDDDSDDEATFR
Sequence | 7-mer Z-score
ACUUAGA | 0.000733
AUUUAAA | 0.74
GCCAUAA | 0.0714
CCAAACG | 0.00617
AGGGCUG | 0.253
AAAGGUU | 0.387
GUCUACU | -0.351
ACCGGGG | 0.108

Single results of other studies
Sequence | target | assay | system | conditions | how to read | quantity | value
HLTMGHSRTDDSRNH | UDP-N-acetylglucosamine--peptide N-acetylglucosaminyltransferase 110 kDa subunit (OGT, Homo sapiens, UniProt O15294) | binding, phage display NGS | peptide | panning round 2 | reference: input library | minimum log2 enrichment ratio | 2.58

For quick reference, copied from above (sample 1):
Variant | normalised enrichment score
PKAIRKLHFDDEV [E10D] | 0.348
PKAIRKLKFEDEV [H8K] | 0.631
PKAIPKLHFEDEV [R5P] | -0.143
